Measured values from different studies.
Each numbered part is a random draw from the data of one study; scales do not carry over between parts. “And” joins repeats or separate records; there may be more than shown.

Study 1 — technique: protein binding microarray; molecule type: double-stranded DNA, one strand shown; medium: in vitro; concentration: not given; relative to: not given; direction: higher = stronger binding
Target: Histone acetyltransferase KAT6A, winged helix 2, GST fusion (KAT6A, Homo sapiens, UniProt Q92794, residues 85-181)
Notes: 8-mer, flanks averaged, mean of 2 arrays, mostly near background
Residues (chain): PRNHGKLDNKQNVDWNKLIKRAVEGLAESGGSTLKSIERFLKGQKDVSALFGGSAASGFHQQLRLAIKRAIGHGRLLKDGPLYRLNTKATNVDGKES
The E-score of `ATTTTGAA` is reported as 0.187.
With `ACGATCAG` the E-score was 0.0428.
For `AGGCACCC`, the E-score was -0.0987.
For `GGCACTAA`, the E-score was 0.104.
With `ACGCGGCG` the E-score was 0.167.
`CCATCCCC` gave an E-score of -0.0284.
The E-score of `ATGATACG` is reported as 0.0888.

Study 2 — technique: aptamer microarray, sandwich; molecule type: DNA with 2'F-ANA; medium: in vitro; concentration: 200 nM; added: Cy3 exosite-II aptamer, 400 nM; direction: higher = stronger binding; strand: GGTTGGTGTGGTTGG
Target: Prothrombin, mature alpha-thrombin (F2, Homo sapiens, UniProt P00734)
Notes: whole 15-mer aptamer, many near background
Under “mean fluorescence intensity”, `2'F-ANA at 8 9 13 15` is recorded as 389 a.u.
`2'F-ANA at 2 7 9 10 11 13 14 15` — result for “mean fluorescence intensity”: 91.2 a.u.
`2'F-ANA at 2 3 4 6 12 14`: “mean fluorescence intensity” 306 a.u.
`2'F-ANA at 1 2 3 8 14 15` — result for “mean fluorescence intensity”: 134 a.u.
`2'F-ANA at 1 4 5 7 10 13 14`: “mean fluorescence intensity” 61.3 a.u.
For `2'F-ANA at 1 2 4 5 6 8 11 12 14 15`, “mean fluorescence intensity” read 86.6 a.u.
`2'F-ANA at 1 3 5 6 9 11 14` — result for “mean fluorescence intensity”: 61 a.u.
`2'F-ANA at 2 3 4 6 9 13` — result for “mean fluorescence intensity”: 310 a.u.
`2'F-ANA at 1 3 6 11 14 15`: “mean fluorescence intensity” 74 a.u.
`2'F-ANA at 1 2 4 5 8 9 11 13 14` — result for “mean fluorescence intensity”: 50 a.u.

Study 3 — technique: RNA Bind-n-Seq; molecule type: RNA; medium: in vitro; concentration: 1 µM; notes: whole 134-nt RNA, ends assumed; added: 150 mM KCl; relative to: input library; direction: higher = stronger binding
Target: Ras GTPase-activating protein-binding protein 1, RRM domain (G3BP1, Homo sapiens, UniProt Q13283)
Chain of UniProt Q13283 (whole entry, looked up): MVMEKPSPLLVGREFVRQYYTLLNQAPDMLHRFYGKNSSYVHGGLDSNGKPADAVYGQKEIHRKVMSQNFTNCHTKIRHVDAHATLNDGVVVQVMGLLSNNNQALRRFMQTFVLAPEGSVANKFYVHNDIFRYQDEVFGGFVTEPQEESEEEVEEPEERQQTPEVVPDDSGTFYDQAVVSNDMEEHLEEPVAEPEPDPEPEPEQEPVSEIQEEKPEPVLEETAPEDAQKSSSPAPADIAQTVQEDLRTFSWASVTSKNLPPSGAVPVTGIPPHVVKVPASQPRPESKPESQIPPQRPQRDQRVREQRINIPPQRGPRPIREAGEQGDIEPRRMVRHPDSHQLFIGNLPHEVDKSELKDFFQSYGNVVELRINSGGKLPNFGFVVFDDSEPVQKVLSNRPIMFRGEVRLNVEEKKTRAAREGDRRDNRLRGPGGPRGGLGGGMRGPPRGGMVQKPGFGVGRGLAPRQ
The log2 enrichment of `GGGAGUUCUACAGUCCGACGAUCUGGCCCUGGUGGCAUGCGGGGAGGAAGAGGUGGCCUCAUGGAUCGUGGUGGUCCCGGUGGAAUGUUCAGAGGUGGCCGUGGUGCAGACAGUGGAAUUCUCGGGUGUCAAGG` is reported as 0.733.
The log2 enrichment of `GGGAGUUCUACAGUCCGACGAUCGUCCUGUGCUACACAUCGUAUGUACCGAAUCGGGGAAAAAAAGGGGUGGGGUUUGGGGAAAGUAUUAUGUUACGCCGUUCGGAUCUGCACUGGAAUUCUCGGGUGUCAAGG` is reported as 0.862.
The log2 enrichment of `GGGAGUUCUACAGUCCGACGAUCUGGCCCUGGUGGCAUGCGGGGAGGAAGAGGUGGCCUCAUGGAUCGUGGUGGUCCCGAUGGAAUGUUCAGAGGUGGCCGUGGUGGAGACAGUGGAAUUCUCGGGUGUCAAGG` is reported as 0.812.
The log2 enrichment of `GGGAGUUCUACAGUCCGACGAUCUCCUGUGCUACACAUCGUAUGUACCGAAUCGGGGAAAAAGGGGAAAAAGGGGAAAAAGGGAAAGUAUUAUGUUACGCCGUUCGGAUCUGCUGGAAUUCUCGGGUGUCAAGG` is reported as 0.0323.
`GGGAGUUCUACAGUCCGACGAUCAAGUCCUGUGCUACACAUCGUAUGUACCGAAUCGGUGGAAAAAAAGGUUUUUUUGGAAAGUAUUAUGUUACGCCGUUCGGAUCUGCACUUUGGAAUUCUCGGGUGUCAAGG` has a log2 enrichment of -0.331.
The log2 enrichment of `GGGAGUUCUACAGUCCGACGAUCUGGCCCUGGUGGCAUGCGGGGAGGAAGAGGUAGCCUCAUGGAUCGUGGUGGUCCCGGUGGAAUGUUCAGAGGUGGCCGUGGUGGAGACAGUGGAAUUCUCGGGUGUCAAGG` is reported as 0.805.

Single results of other studies
`PhoQ, residues 284 288 289 292 302 303 TASMAF` gave a fold induction of 12.9 and 24.8 (PhoP, residues 12 14 15 18 19 LWHSL (Escherichia coli, UniProt P23836); Sort-seq, refers to: YFP reporter; E. coli; PhoQ-PhoP variant library, added: 10 µM Mg2+; relative to: high Mg2+ state, higher = stronger signaling).
